Measured values pooled from the literature.
Each line is one published result; not all experiments were run side by side. Several values in a cell are separate wells, animals, samples, runs or records. Numbers after ± are the reported error.

SMILES	target or system	test	test system	setting	scale	quantity	result
O=C(/C=C/C=C/C=C/C1CCCCC1)NC1=C[C@@](O)(/C=C/C=C/C=C/C(=O)NC2=C(O)CCC2=O)[C@@H]2O[C@@H]2C1=O	COR-L105	cell growth, CellTiter-Glo		78 h		GI50	16.1 µM
C[C@]12CC[C@H](O)CC1=CC[C@@H]1[C@@H]2CC[C@]2(C)C(c3cccnc3)=CC[C@@H]12	C4-2B	cell growth, MTT				GI50	12.6 ± 0.16 µM
Cc1nc(OCCCCCN2CCCCC2)cc(-c2ccc(F)cc2)n1	HEK293T ATF4-FLuc reporter	ATF4 reporter gene, activator, luciferase reporter				EC50	> 9.96 µM
COc1cnc(-n2cnc(C)n2)c2[nH]cc(C(=O)C(=O)N3CCN(C(=O)c4ccccc4)CC3)c12	THP-1	pyroptotic LDH release		2 µM, 40 min, with: LPS then nigericin		inhibition	-5.67%
Cl.Cl.NCCNS(=O)(=O)c1ccc(Cl)c2ccncc12	SK-OV-3	ATP		0.01 µM, 4 days, 3D U-bottom low-attachment	baseline: untreated	relative cell number	120%
CC(=O)[C@@]1(C)CC[C@H]2[C@@H]3C=C(C)C4=CC(=O)CC[C@]4(C)[C@H]3CC[C@@]21C	HEK293T ATF4-FLuc reporter	ATF4 reporter gene, activator, luciferase reporter				EC50	> 9.96 µM
CN(C)c1ccc(C(=C2C=CC(=[N+](C)C)C=C2)c2ccc(N(C)C)cc2)cc1	human iPSC cardiomyocytes	plate-normalised		concentration not given, hit retest	baseline: vehicle controls, SDs below control	MyBP-C level change	13.9 SD
CC(C)N(CCO/N=C1\CCCCC\C1=C\c1ccccc1)C(C)C	HEK293T ATF4-FLuc reporter	ATF4 reporter gene, activator, luciferase reporter				EC50	> 9.96 µM
COc1ccc(F)cc1C(=O)NCc1ccc(-c2nn([C@@H](C)C(F)(F)F)c(N)c2C(N)=O)cc1	Rec1	item: EOTAXIN		24 h		IC50	> 0.1 µM
CCc1c(-c2ccccc2)c(-c2ccccc2)nn1-c1ccccc1-c1cccc(OCC(=O)O)c1	mouse osteoclasts	RT-qPCR, item: Fosl2		concentration not given, unit not given	baseline: bone marrow macrophages	mRNA level	0.611 and 0.599 and 0.646
C[C@H]1[C@H](C)CC[C@]2(C)CC[C@]3(C)C(=CC(=O)[C@@H]4[C@@]5(C)CC[C@@H](O)[C@](C)(C(=O)NCc6cn(-c7cccc(Br)c7)nn6)[C@@H]5CC[C@]43C)[C@H]12	human PBMCs, ConA-activated	flow cytometry		10 µM, 24 h	baseline: T cells	CD8- T cells	40.5%
COc1ccc(NC(=S)N/N=C/c2cccc3cc4ccccc4nc23)cc1	HeLa	PI flow cytometry		IC12.5, 48 h, with: N-acetylcysteine		G1 phase cells	57.3 ± 1.2%
Cc1c(C)c2c(c(C)c1O)CCC(C)(COc1ccc(CC3SC(=O)NC3=O)cc1)O2 (stereo not drawn)	HepG2	mitochondrial ROS		1 h, distribution mode 2		point of departure	15.1 µM
O=C(O)/C=C/c1ccc(O)c(O)c1	Caco-2/THP-1 co-culture	TEER		0.05 µg/mL, with: LPS 50 ng/mL	baseline: control	transepithelial electrical resistance	75.2 ± 5.6%
C[C@@H](O)[C@@H]1NC(=O)[C@H](CCCCN)NC(=O)[C@@H](Cc2c[nH]c3ccccc23)NC(=O)[C@H](Cc2ccc(O)cc2)NC(=O)[C@H](NC(=O)[C@H](Cc2ccc([N+](=O)[O-])cc2)NC(=O)CN2CCCN3CCN(CCCN(CC(=O)O)CC3)CC2)CSSC[C@@H](C(=O)N[C@H](Cc2ccc(O)cc2)C(N)=O)NC1=O [copper-64 labelled]	HCT-116 p53-/- SSTR2-transfected			24 h, with: cisplatin 40 µM	baseline: cell-associated activity	nuclear uptake	8.81 ± 1.02%
Nc1nc(Cl)nc2c1ncn2[C@@H]1O[C@H](CO)[C@@H](O)[C@H]1O	HEK293T ATF4-FLuc reporter	ATF4 reporter gene, activator, luciferase reporter				EC50	0.955 µM
Clc1ccc(-c2c(-c3ccccn3)nc3n2CCC3)cc1	Leishmania infantum		macrophages, MHOM/MA(BE)/67/ITMAP263, amastigote			IC50	1.81 µM and 1.26 µM
CCCC(=O)[O-].[Na+]	Caco-2/THP-1 co-culture	TEER		concentration not given, with: LPS 100 ng/mL	baseline: control	transepithelial electrical resistance	79.6 ± 7.6%
C[C@@H]1CN(C(=O)c2ccc(NC(=O)c3cc(O[C@H](C)c4c(Cl)ccc(F)c4Cl)c(N)nn3)cc2)C[C@H](C)N1	Ba/F3 EML4-ALK variant 1 L1196Q	cell viability				Emax	100%
CCn1cc(-c2cc(Cn3ccoc3=N)cc3c2CCN([C@@H](C)c2cc(OC)ccn2)C3=O)c(C(F)(F)F)n1	HCC1438	cell growth		120 h		EC50	> 30 µM
N[C@@H]1c2ccccc2C[C@@H]1O	THP-1	pyroptotic LDH release		2 µM, 40 min, with: LPS then nigericin		inhibition	10.7%
Cc1cnc2ccc3c(c2n1)N1CCC(O)N=C1N3C (stereo not drawn)	BALB/c 3T3	colony formation		0.5 µM		plating efficiency	51%
CC(=O)Nc1cc(Oc2ccc3c(c2)CCN3C(=O)Nc2ccc(CN3CCN(C)CC3)c(C(F)(F)F)c2)ncn1	MUTZ5 cells	Western blot, item: JAK2, STAT5, STAT3		concentration not given		phosphorylation	inhibited
NC(=O)[C@@H]1CC[C@@H]2CN1C(=O)N2OS(=O)(=O)O	THP-1	pyroptotic LDH release		2 µM, 40 min, with: LPS then nigericin		inhibition	3.23%
Cc1ccc(CNC(=O)Cn2cc(CSc3nc4ccccc4[nH]3)nn2)cc1	MDA-MB-231	MTT		3.91 ppm		cytotoxicity	48.9%
CC(C)c1ccc(C(=O)NC(=N)N)cc1S(C)(=O)=O	THP-1	pyroptotic LDH release		2 µM, 40 min, with: LPS then nigericin		inhibition	-28.8%
CCCCN1CCN(c2ccc3[nH]c(-c4ccc5[nH]c(-c6ccc(OCC)cc6)nc5c4)nc3c2)CC1	RXF 393	SRB		10 µM, 48 h		growth percent	36.9%

SMILES	target or system	test	test system	setting	scale	quantity	result
O=C(O)c1cc(O)c(O)c(O)c1	coculture, Caco-2, THP-1	ELISA		100 ng/mL, 8 h, with: LPS, IFNγ, ATP	baseline: untreated control	IL-1β level	8.9 ± 1.3 fold change
CCCC1O[C@@H]2C[C@H]3[C@@H]4CCC5=CC(=O)C=C[C@@]5(C)[C@H]4[C@@H](O)C[C@@]3(C)[C@@]2(C(=O)COC(=O)c2ccc(CO[N+](=O)[O-])cc2)O1 (stereo partly drawn)	HEK293T ATF4-FLuc reporter	ATF4 reporter gene, activator, luciferase reporter				EC50	> 9.96 µM
O=S(=O)(O)CCCN1CCOCC1	THP-1	pyroptotic LDH release		2 µM, 40 min, with: LPS then nigericin		inhibition	-8.57%
CCCCCC(O)c1ccc(N2C(=O)CC[C@@H]2COCc2ccc(C(=O)OC(C)C)s2)cc1 (stereo partly drawn)	HEK293T ATF4-FLuc reporter	ATF4 reporter gene, activator, luciferase reporter				EC50	4.29 µM
Nc1cccc2c1CN(C1CCC(=O)NC1=O)C2=O (stereo not drawn)	bone marrow CD138+ myeloma cells	XTT		1.4 µM, mean of three patients		viability	40%
CCCCN1CCN(c2ccc3[nH]c(-c4ccc5[nH]c(-c6cc(OC)c(OC)c(OC)c6)nc5c4)nc3c2)CC1	RXF 393	SRB		10 µM, 48 h		growth percent	-43.4%
CC(C)(C)NC(=O)[C@@H]1C[C@@H]2CCCC[C@@H]2CN1C[C@@H](O)[C@H](Cc1ccccc1)NC(=O)[C@H](CC(N)=O)NC(=O)c1ccc2ccccc2n1	THP-1	pyroptotic LDH release		2 µM, 40 min, with: LPS then nigericin		inhibition	71%
Cc1ccc(C)c(Cn2cc(CCNc3ncnc4c3ncn4[C@@H]3O[C@H](C(=O)NC4CC4)[C@@H](O)[C@H]3O)c3cc(C)ccc32)c1	HEK293T ATF4-FLuc reporter	ATF4 reporter gene, activator, luciferase reporter				EC50	1.58 µM
COc1cnc2cccc(N3CCc4c(cc(Cn5ccnc5C)cc4-c4cn(C)nc4C(F)(F)F)C3=O)c2c1	NCI-H322	cell growth, inhibitor		120 h		EC50	> 30 µM
COc1c(O)c(C)cc2c1C(=O)c1c(O)cccc1C2=O	HK-2 co-cultured with HepaRG	MTT		133.33 µM, 24 h	baseline: untreated control	viability	68.2 ± 11.6%
C#C[C@@]1(O)[C@@H](CO)O[C@@H](n2cc(F)c3c(N)ncnc32)[C@@H]1O	RXF 393	SRB		NCI-60 screen		TGI	2.99 µM
CCn1cc(-c2cc(Cn3ccnc3)cc3c2CCN([C@H](c2cc(OC)ccn2)C2CC2)C3=O)c(C(F)(F)F)n1	HCC1438	cell growth		120 h		EC50	> 30 µM
O=C(Nc1nnc2n3c(Cc4ccccc4)n[nH]c3nc(-c3ccc(Cl)cc3)c1-2)c1ccccc1	SF-268	SRB		10 µM, NCI60 single-dose screen	baseline: untreated	cell growth	101%
O=P(O)(O)O[C@H]1[C@H](OP(=O)(O)O)[C@@H](OP(=O)(O)O)[C@H](OP(=O)(O)O)[C@@H](OP(=O)(O)O)[C@H]1OP(=O)(O)O	THP-1	pyroptotic LDH release		2 µM, 40 min, with: LPS then nigericin		inhibition	-19.3%
O=C(O)CCc1ccc(O)c(O)c1	Caco-2/THP-1 co-culture			concentration not given, with: LPS 200 ng/mL		kynurenine level	114 ± 2.7 % change
Nc1cccc2c1C(=O)N(C1CCC(=O)NC1=O)C2=O (stereo not drawn)	MM1.S	XTT		2.5 µM		viability	16% and 14%
C=CC(=O)Nc1cc(Nc2nccc(Nc3cc(Cl)c(F)cc3C(C)(C)O)n2)c(OC)cc1N1CC[C@@H](N(C)C)C1	NCI-H2073 EGFR SVD knock-in	cell proliferation, CellTiter-Glo			baseline: knock-in over parental NCI-H2073	selectivity ratio	0.8
C#C[C@]1(O)CC[C@H]2[C@@H]3CCC4=CCCC[C@@H]4[C@H]3C(=C)C[C@@]21CC	THP-1	pyroptotic LDH release		2 µM, 40 min, with: LPS then nigericin		inhibition	-8.95%
C=Cc1c2[n-]c(c1C)/C=c1\[n-]/c(c(C)c1C=C)=C\c1[n-]c(c(CCC(=O)O)c1C)/C=c1\[n-]c(c(C)c1CCC(=O)O)=C2.[Sn+4]	SH-SY5Y	RNA-seq, item: ITGA6 mRNA		5 µM, 5 h	baseline: untreated cells	fold change	2.42
CCOC(=O)c1nn(-c2ccccc2)c(C#N)c1N	human monocytes	phagocytosis of anti-D RBCs		5 µM, lab-synthesized sample		inhibition	37.1 ± 5.5%
COc1cc(/C=C/C(=O)O)ccc1O	Caco-2/THP-1 co-culture			concentration not given, with: LPS 100 ng/mL		kynurenine level	140 ± 8.3 % change
Cn1cc(-c2ccc(-c3cncc(Cl)c3N3CCC4(CCNC4=O)CC3)cc2)cn1	COLO 205	gene expression, microarray, item: BTG2 mRNA		concentration not given, 6 h	baseline: untreated cells	log2 fold change	3.71
O=c1c(O)c(-c2ccc(O)cc2)oc2cc(O)cc(O)c12	Caco-2/THP-1 co-culture			0.25 µg/mL, with: LPS 250 ng/mL		kynurenine level	78.2 ± 1.3 % change
CC[C@@H](C)[C@H](N)C(=O)N1Cc2ccccc2C1	NOMO-1	cell viability, CellTiter-Glo		day 5		IC50	0.57 µM
COc1ccn2cc(-c3ccccn3)nc2c1	Leishmania infantum		macrophages, MHOM/MA(BE)/67/ITMAP263, amastigote			IC50	32.2 µM and 23.9 µM
O=C(O)CCc1ccc(O)cc1	Caco-2/THP-1 co-culture	TEER		0.25 µg/mL, with: LPS 250 ng/mL	baseline: control	transepithelial electrical resistance	75.3 ± 8.2%
CNC(=O)[C@H]1O[C@@H](n2cnc3c(NCc4cccc(I)c4)nc(Cl)nc32)[C@H](O)[C@@H]1O	HEK293T ATF4-FLuc reporter	ATF4 reporter gene, activator, luciferase reporter				EC50	3.71 µM
